Measurements collected from several papers.
Lines come from different studies, so protocols differ. Values joined by “and” are separate records of one study, mostly repeats; a detail may differ. Numbers after ± are the reported error.

CC(C)C[C@@H](NC(=O)[C@@H](CCCNC(=N)N)NC(=O)[C@@H](Cc1c[nH]cn1)NC(=O)[C@@H](Cc1c[nH]c2ccccc12)NC(=O)[C@@H](Cc1c[nH]cn1)NC(=O)[C@@H](Cc1ccccc1)NC(=O)[C@H](NC(=O)[C@@H](Cc1ccc(O)cc1)NC(=O)CNC(=O)CNC(=O)CCOCCOCCOCCNC(=O)CN1CCN(CC(=O)O)CCN(CC(=O)O)CC1)[C@H](C)O)C(=O)N[C@H](CC(N)=O)C(=O)N1CCC[C@@H]1C(=O)O [gallium-68 labelled]
tissue uptake (gamma counting; C57BL/6 mice, male, kidney; intravenous, 1.85 MBq, 30 min): 40.9 ± 3.18 %ID/g

CCCCCCCCCCCCCCCC(=O)N[C@@H](CCC(=O)NCCOCCOCCC(=O)NCCOCCOCCC(=O)NCCCC[C@H](NC(=O)[C@H](CC(=O)O)NC(=O)[C@H](CC(C)C)NC(=O)[C@H](Cc1ccc(O)cc1)NC(=O)[C@H](CCCCN)NC(=O)[C@H](CO)NC(=O)[C@H](Cc1ccc(O)cc1)NC(=O)[C@H](CC(=O)O)NC(=O)[C@H](CO)NC(=O)[C@@H](NC(=O)[C@H](Cc1ccccc1)NC(=O)[C@@H](NC(=O)CNC(=O)[C@H](CCC(N)=O)NC(=O)[C@@H](CO)NC(=O)[C@@H](N)Cc1c[nH]cn1)[C@@H](C)O)[C@@H](C)O)C(=O)N[C@@H](CCCNC(=N)N)C(=O)N[C@@H](CCCNC(=N)N)C(=O)N[C@@H](C)C(=O)N[C@@H](CCC(N)=O)C(=O)N[C@@H](CC(=O)O)C(=O)N[C@@H](Cc1ccccc1)C(=O)N[C@H](C(=O)N[C@@H](CCC(N)=O)C(=O)N[C@@H](Cc1c[nH]c2ccccc12)C(=O)N[C@@H](CC(C)C)C(=O)N[C@@H](CC(C)C)C(=O)N[C@@H](CC(N)=O)C(=O)N[C@H](C(=O)NCC(=O)NCC(=O)N1CCC[C@H]1C(=O)N[C@@H](CO)C(=O)N[C@@H](CO)C(=O)NCC(=O)N[C@@H](C)C(=O)N1CCC[C@H]1C(=O)N1CCC[C@H]1C(=O)N1CCC[C@H]1C(=O)N[C@@H](CO)C(N)=O)[C@@H](C)O)C(C)C)C(=O)O
serum enzyme activity (refers to: AST; rhesus monkey, female; subcutaneous, 300 µg/kg once daily, 28 days): 42.6 ± 7.1 U/L

COc1ccc(CNc2ccc3c(c2)S(=O)(=O)C=C3)cc1
CD4+ cells (flow cytometry; male C57BL/6 mice, spleen; i.p., 10 mg/kg, 8 days; baseline: CD45+ cells): 14.7%

CC(=O)CCC1C(=O)NC(C(C)C)C(=O)NC(Cc2cc(O)cc(F)c2)C(=O)N2CCCC(N2)C(=O)OC(C(C)=CC=CC(=O)N2CCCCO2)CC=CC=CC(O)C(C)C1O (stereo not shown)
AUC (male Sprague-Dawley rat, liver; oral, 5 mg/kg): 32.8 µg·h/mL

CC[C@H](C)[C@H](NC(=O)[C@H](C)NC(=O)[C@H](CCCCN)NC(=O)[C@H](CC(C)C)NC(=O)[C@@H](N)Cc1ccccc1)C(=O)N[C@@H](CCCCN)C(=O)N[C@@H](CCCCN)C(=O)N[C@@H](Cc1ccccc1)C(=O)NCC(=O)N[C@@H](CCCCN)C(=O)N[C@@H](CCC(=O)O)C(=O)N[C@@H](Cc1ccccc1)C(=O)N[C@@H](CCCCN)C(=O)N[C@@H](CCCCN)C(=O)N[C@H](C(=O)NCC(=O)N[C@@H](C)C(=O)N[C@@H](CCCCN)C(=O)N[C@@H](CC(C)C)C(=O)N[C@@H](CCCCN)C(=O)O)[C@@H](C)CC
hemolysis (human red blood cells; 2 mg/L, 1 h, mean of replicates): 0.551%

CC[C@H](C)[C@H](NC(=O)[C@H](Cc1ccc(O)cc1)NC(=O)[C@@H](NC(=O)[C@H](CCCNC(=N)N)NC(=O)[C@@H](N)CC(=O)O)C(C)C)C(=O)N[C@@H](Cc1c[nH]cn1)C(=O)N1CCC[C@H]1C(=O)O
AUC (Beagle dog, plasma; sc, 10 mg/kg/day, day 0, median): 0.908 µg·h/mL

CSCC[C@H](NC(=O)CNC(=O)[C@H](CCCCN)NC(=O)[C@H](CC(C)C)NC(=O)[C@@H]1CCCN1C(=O)[C@H](CO)NC(=O)[C@H](Cc1c[nH]cn1)NC(=O)[C@H](Cc1c[nH]c2ccccc12)NC(=O)[C@H](CCCNC(=N)N)NC(=O)[C@H](CC(C)C)NC(=O)[C@H](CCCNC(=N)N)NC(=O)[C@H](Cc1c[nH]c2ccccc12)NC(=O)[C@H](CS)NC(=O)CCCCCNC(=O)CN1CCN(CC(=O)O)CCN(CC(=O)O)CCN(CC(=O)O)CC1)C(=O)O [copper-64 labelled]
tissue uptake (PET imaging; C57BL/6J mice bearing B16-F10 tumours, liver; intravenous, 57.5 min): 9.41 ± 1.4 %ID/g

Cc1ccccc1-c1ccc(-c2nc(-c3ccc(CN(C)CCCC(=O)O)c([18F])c3)no2)cc1C(F)(F)F
tracer uptake (rat, lung; 30 min): 0.61 %ID/g

CSCC[C@H](N)C(=O)N[C@@H](C)C(=O)N[C@@H](CCCNC(=N)N)C(=O)N[C@@H](CCCNC(=N)N)C(=O)N[C@@H](CC(=O)O)C(=O)N[C@@H](CCCCN)C(=O)N[C@H](C(=O)N[C@@H](CC(=O)O)C(=O)N[C@@H](Cc1ccccc1)C(=O)N[C@@H](C)C(=O)N[C@@H](CCCNC(=N)N)C(=O)N[C@@H](CCCNC(=N)N)C(=O)N[C@@H](CCCNC(=N)N)C(=O)N[C@@H](CCCNC(=N)N)C(=O)NCCCCCC(=O)NCCCCC(NC(=O)CCCCCNC(=O)[C@H](CCCNC(=N)N)NC(=O)[C@H](CCCNC(=N)N)NC(=O)[C@H](CCCNC(=N)N)NC(=O)[C@H](CCCNC(=N)N)NC(=O)[C@H](C)NC(=O)[C@H](Cc1ccccc1)NC(=O)[C@H](CC(=O)O)NC(=O)[C@@H](NC(=O)[C@H](CCCCN)NC(=O)[C@H](CC(=O)O)NC(=O)[C@H](CCCNC(=N)N)NC(=O)[C@H](CCCNC(=N)N)NC(=O)[C@H](C)NC(=O)[C@@H](N)CCSC)[C@@H](C)O)C(=O)NCCCCC(NC(=O)C(CCCCNC(=O)CCCCCNC(=O)[C@H](CCCNC(=N)N)NC(=O)[C@H](CCCNC(=N)N)NC(=O)[C@H](CCCNC(=N)N)NC(=O)[C@H](CCCNC(=N)N)NC(=O)[C@H](C)NC(=O)[C@H](Cc1ccccc1)NC(=O)[C@H](CC(=O)O)NC(=O)[C@@H](NC(=O)[C@H](CCCCN)NC(=O)[C@H](CC(=O)O)NC(=O)[C@H](CCCNC(=N)N)NC(=O)[C@H](CCCNC(=N)N)NC(=O)[C@H](C)NC(=O)[C@@H](N)CCSC)[C@@H](C)O)NC(=O)CCCCCNC(=O)[C@H](CCCNC(=N)N)NC(=O)[C@H](CCCNC(=N)N)NC(=O)[C@H](CCCNC(=N)N)NC(=O)[C@H](CCCNC(=N)N)NC(=O)[C@H](C)NC(=O)[C@H](Cc1ccccc1)NC(=O)[C@H](CC(=O)O)NC(=O)[C@@H](NC(=O)[C@H](CCCCN)NC(=O)[C@H](CC(=O)O)NC(=O)[C@H](CCCNC(=N)N)NC(=O)[C@H](CCCNC(=N)N)NC(=O)[C@H](C)NC(=O)[C@@H](N)CCSC)[C@@H](C)O)C(N)=O)[C@@H](C)O (stereo partly shown)
tissue distribution (mouse C57BL/6 female, small intestine; 3 h, radioiodinated peptide; baseline: total radioactivity): 16.3% and 10.2% and 8%

CC(C)=CCC/C(C)=C/CCn1cc(CC(P(=O)(O)O)P(=O)(O)O)nn1
concentration (mouse CD-1, bile; intravenous, 0.3 mg/kg, 2 h): 0.554 ± 0.267 µg/mL

CN1Cc2cc(Cl)ccc2-n2c(nnc2C2CCN(c3cccc([18F])n3)CC2)C1
tissue uptake (C57BL/6 mouse male, thymus; intravenous, dose not given, 5 min, together with: blocking agent 10 mg/kg): 3.89 ± 1.55 %ID/g

CC[C@H](C)[C@H](NC(=O)[C@H](CCCCN)NC(=O)CNC(=O)[C@H](CC(C)C)NC(=O)[C@H](Cc1ccccc1)NC(=O)[C@H](CCCCN)NC(=O)[C@H](CO)NC(=O)[C@H](Cc1ccccc1)NC(=O)[C@H](Cc1c[nH]c2ccccc12)NC(=O)[C@H](CCC(N)=O)NC(=O)[C@@H](NC(=O)[C@H](Cc1ccccc1)NC(=O)CCCCCNC(=O)CN1CCN(CC(=O)O)CCN(CC(=O)O)CCN(CC(=O)O)CC1)C(C)C)C(=O)N[C@@H](CCC(=O)O)C(=O)N1CCC[C@H]1C(=O)N[C@@H](CC(=O)O)C(=O)N[C@H](C(=O)N[C@@H](CO)C(=O)N[C@@H](CCC(N)=O)C(=O)N[C@H](C(=O)N[C@@H](CCC(N)=O)C(=O)N[C@@H](CC(=O)O)C(=O)N1CCC[C@H]1C(=O)N[C@@H](CC(N)=O)C(=O)N[C@@H](CC(=O)O)C(=O)N[C@@H](CCC(N)=O)C(=O)N[C@@H](Cc1ccc(O)cc1)C(=O)N[C@@H](CCC(=O)O)C(=O)N1CCC[C@H]1C(=O)N[C@@H](Cc1ccccc1)C(=O)O)C(C)C)C(C)C [copper-64 labelled]
SUVmean (dynamic PET; mouse both sexes, CT26 tumour, untreated, tumour; intravenous, 100 µCi/mouse, 690 s): 1.14 SUV

C/C(=N\OCCCN1CCCCC1)c1ccc(C(F)(F)F)cc1
Cmax (mouse, plasma; oral, 150 mg/kg once daily, day 7): 1.64 ± 0.156 µg/mL

O=C1NC2(CC2)COc2ncc(F)cc2[C@H]2COCCN2c2ccn3ncc1c3n2
basophil percentage (Sprague-Dawley rats, male, blood; oral, 20 mg/kg/day, end of treatment, 4-week subacute toxicity): 0.12 ± 0.08%

CC(C)[C@@H]1NC(=O)CNC(=O)[C@H](CC(N)=O)NC(=O)[C@H](CCCNC(=N)N)NC(=O)[C@H](Cc2ccc(O)cc2)NC(=O)[C@H](C(C)C)NC(=O)[C@@H](NC(=O)[C@@H](NC(=O)[C@H](CC(N)=O)NC(=O)[C@H](Cc2c[nH]c3ccccc23)NC(=O)[C@H](C)NC(=O)[C@H](Cc2ccccc2)NC(=O)CNC(=O)[C@H](CCCCN)NC(=O)[C@H](Cc2ccccc2)NC(=O)[C@H](Cc2ccccc2)NC(=O)[C@H](CCCCN)NC(=O)OCC2c3ccccc3-c3ccccc32)C(C)C)CSSC[C@@H](C(=O)N[C@@H](Cc2c[nH]cn2)C(=O)N[C@@H](CCCNC(=N)N)C(=O)N[C@@H](CCCNC(=N)N)C(=O)N[C@@H](C)C(=O)N[C@@H](CC(N)=O)C(N)=O)NC(=O)[C@H](C(C)C)NC(=O)[C@H](CCCNC(=N)N)NC1=O
globulin (ICR mice, serum; intraperitoneal, 10 mg/kg, day 5): 18.82 ± 0.04 g/L

CC(C)C[C@H](NC(=O)[C@H](Cc1ccc(O)cc1)NC(=O)[C@H](Cc1c[nH]cn1)NC(=O)[C@H](CCCCN)NC(=O)[C@H](CC(C)C)NC(=O)[C@H](C)NC(=O)[C@H](CC(C)C)NC(=O)[C@H](CCCCN)NC(=O)CNC(=O)[C@@H](NC(=O)[C@@H](NC(=O)[C@H](CCCCN)NC(=O)[C@@H](NC(=O)[C@H](CCC(=O)O)NC(=O)[C@H](C)NC(=O)[C@H](CCCCN)NC(=O)[C@H](CCCCN)NC(=O)[C@H](CC(C)C)NC(=O)[C@H](CC(C)C)NC(=O)[C@@H](NC(=O)[C@H](CCCNC(=N)N)NC(=O)[C@H](Cc1c[nH]c2ccccc12)NC(=O)CN)[C@@H](C)O)C(C)C)[C@@H](C)O)C(C)C)C(N)=O
chronic toxic concentration (zebrafish embryos 28 hpf, E3 medium; 24 h): 25 µM

Excerpt of the above:
CC[C@H](C)[C@H](NC(=O)[C@H](C)NC(=O)[C@H](CCCCN)NC(=O)[C@H](CC(C)C)NC(=O)[C@@H](N)Cc1ccccc1)C(=O)N[C@@H](CCCCN)C(=O)N[C@@H](CCCCN)C(=O)N[C@@H](Cc1ccccc1)C(=O)NCC(=O)N[C@@H](CCCCN)C(=O)N[C@@H](CCC(=O)O)C(=O)N[C@@H](Cc1ccccc1)C(=O)N[C@@H](CCCCN)C(=O)N[C@@H](CCCCN)C(=O)N[C@H](C(=O)NCC(=O)N[C@@H](C)C(=O)N[C@@H](CCCCN)C(=O)N[C@@H](CC(C)C)C(=O)N[C@@H](CCCCN)C(=O)O)[C@@H](C)CC
hemolysis (human red blood cells; 2 mg/L, 1 h, mean of replicates): 0.551%

CC[C@H](C)[C@H](NC(=O)[C@H](Cc1ccc(O)cc1)NC(=O)[C@@H](NC(=O)[C@H](CCCNC(=N)N)NC(=O)[C@@H](N)CC(=O)O)C(C)C)C(=O)N[C@@H](Cc1c[nH]cn1)C(=O)N1CCC[C@H]1C(=O)O
AUC (Beagle dog, plasma; sc, 10 mg/kg/day, day 0, median): 0.908 µg·h/mL

CSCC[C@H](NC(=O)CNC(=O)[C@H](CCCCN)NC(=O)[C@H](CC(C)C)NC(=O)[C@@H]1CCCN1C(=O)[C@H](CO)NC(=O)[C@H](Cc1c[nH]cn1)NC(=O)[C@H](Cc1c[nH]c2ccccc12)NC(=O)[C@H](CCCNC(=N)N)NC(=O)[C@H](CC(C)C)NC(=O)[C@H](CCCNC(=N)N)NC(=O)[C@H](Cc1c[nH]c2ccccc12)NC(=O)[C@H](CS)NC(=O)CCCCCNC(=O)CN1CCN(CC(=O)O)CCN(CC(=O)O)CCN(CC(=O)O)CC1)C(=O)O [copper-64 labelled]
tissue uptake (PET imaging; C57BL/6J mice bearing B16-F10 tumours, liver; intravenous, 57.5 min): 9.41 ± 1.4 %ID/g
